Experimental data of several laboratories.
Protocols differ between the studies behind these lines. Several values in a cell are separate wells, animals, samples, runs or records. ± marks the error that the study gave.

COc1cc(/C=C(\C#N)C(=O)c2ccsc2)cc(OC)c1OC  IC50 (HEK293-A GFP-LC3B; LC3B puncta formation; 22 h, with: chloroquine, torin1): > 20 µM
C=CC(=O)N1CCCC(n2c(=O)c3ncccc3n(Cc3ccc(Oc4ccccc4)cc3)c2=O)C1 (stereo not shown)  IC50 (H9; cell growth or viability, MTT; 72 h): 1 µM
CN1CC[C@@H](COc2cnc(C#N)cc2-c2ccn3nc(NC(=O)C4CC4)cc3c2)C1  IC50 (human monocyte-derived macrophages; cytokine release, measured: TNF; with: LPS): 1.41 µM
Nc1cc2cccnc2c2ncccc12.[Cl-].[Cl-].[Ru+2].c1cnc2c(c1)ccc1cccnc12.c1cnc2c(c1)ccc1cccnc12  IC50 (HFF-1; cell growth or viability, MTT; dark): > 1000 µM
CC(C)(C)c1cnc(CSc2cnc(NC(=O)C3CCN(C(=O)CCCCCCN4Cc5cc6c(cc5C4)C(=O)N(C4CCC(=O)NC4=O)C6=O)CC3)s2)o1 (stereo not shown)  IC50 (MES-SA; cell growth or viability, MTT): 0.2 µM
C=C(NC(=O)c1csc(-c2nc3c(cc2O)-c2nc(cs2)C(=O)NC(C(C)O)C(=O)NC(=C(C)OC)c2nc(cs2)C(=O)NC2c4nc(cs4)C(=O)NC(COC(=O)c4c5c6c(cccc6n4O)COC(=O)C(OC4CC(C)(O)C(N(C)C)C(C)O4)C2OC5)c2nc-3cs2)n1)C(N)=O (stereo not shown)  half-life (Sprague-Dawley rat, female, plasma; intravenous infusion, 6 mg/kg, multiple doses, day 7): 423 min
CCCC[C@H](NC(=O)COCCOCCNC(=O)CN1CCN(CC(=O)O)CCN(CC(=O)O)CC1)C(=O)N[C@H]1CC(=O)NCCCC[C@@H](C(N)=O)NC(=O)[C@H](Cc2c[nH]c3ccccc23)NC(=O)[C@H](CCCNC(=N)N)NC(=O)[C@@H](Cc2ccccc2)NC(=O)[C@H](Cc2c[nH]cn2)NC1=O [technetium-99m labelled]  tissue uptake (C57 mouse, blood; intravenous, 0.037 MBq, 4 h): 0.05 ± 0.04 %ID/g
Cc1cnc(Nc2ccc3c(c2)CCN(C(=O)/C=C/C(=O)c2ccc(Cl)cc2)C3)nc1-c1cnn(C(C)C)c1  IC50 (MDA-MB-231/ADR doxorubicin-resistant; cell viability, MTT): 0.37 ± 0.02 µM
CC(C)c1ccc(N(C)c2ccc3c(c2)OCC[C@H]3CNc2cnccc2C(=O)O)cc1  IC50 (RL; cell growth, CellTiter-Glo; 7 days): 0.00299 µM
C=CC(=O)Nc1ccc(F)c(-c2ncnc3[nH]cc(C(=O)OCC)c23)c1  IC50 (mouse CD4 T-cell blasts; phosphoflow, measured: STAT5 phosphorylation; 2 h pretreatment, with: IL-2 50 U/mL): 0.0472 ± 0.0045 µM
CNC(=O)C1CCCN(C(=O)C2CC3CCC2N3C(=O)[C@@H]2C[C@@H](O)CN2C(=O)NCc2cccc(Cl)c2F)C1 (mixture of isomers)  remaining activity (Cytochrome P450 2C9 (CYP2C9, Homo sapiens, UniProt P11712); preincubation with NADPH; human; 0.0686 µM; relative to: negative control): 101% and 92.4% and 104%
Cc1ncsc1-c1ccc(C(C)NC(=O)C2CC(O)CN2C(=O)C(NC(=O)CCCCCCCCCCN2CCCC(Nc3ncc(Cl)c(Nc4ccccc4S(=O)(=O)C(C)C)n3)C2)C(C)(C)C)cc1 (stereo not shown)  log2 fold change (22Rv1; RNA-seq, measured: TRIP11 mRNA; concentration not given; relative to: DMSO): -1.36
COC1CN([C@H]2CC[C@H]([C@@]3(C)Oc4c(Cl)cc(C(=O)NCc5c(SC)cc(C)[nH]c5=O)c(C)c4O3)CC2)C1  log2 fold change (RNA-seq, measured: MMP14 mouse homolog; mouse, HT-1376 xenograft, whole blood; dose not given; relative to: vehicle): 0.0565
O=C1CS/C(=N\N=C\c2cccc3cc4ccccc4nc23)N1c1ccc([N+](=O)[O-])cc1  IC50 (PATU; cell proliferation, MTT; 48 h): > 50 µM
CN1CCCNC(=O)c2cccc(c2)C(=O)NCCCN(C)CCCNc2cccc3c2C(=O)c2cccc(c2C3=O)NCCC1  log2 fold change (SAS; RNA-Seq, measured: PDS5B mRNA; 1 µM, 6 h; relative to: untreated cells): -1.87
COc1ccc2nc(NC(=O)c3ccc(C(N)c4ccccc4)cc3)sc2c1 (stereo not shown)  IC50 (NCI-H2122; cell growth or viability): 0.03 µM
COC(=O)C1=C(C)Oc2ccc(Br)cc2C1C(C(C)=O)C(=O)OC (stereo not shown)  IC50 (3T3-L1 pre-adipocytes; cell viability, MTT; 72 h): > 100 µg/mL
CCOC(=O)/C=C1\S/C(=N\N=C\c2cccc3cc4ccccc4nc23)N(c2cccc(OC)c2)C1=O  IC50 (PATU; cell proliferation, MTT; 48 h): > 50 µM
O=S(=O)(N[C@H]1CCC[C@@H](N2c3ccccc3CCc3ccccc32)[C@@H]1O)c1ccc(OC(F)(F)F)cc1  IC50 (E98; cell viability, CellTiter-Glo; 72 h): 10 µM
Nc1ncc(-c2cc(-c3cnn(CC(F)(F)F)c3)ncc2F)nc1C(=O)NC1CNCC(F)C1 (stereo not shown)  remaining binding (SIK2; KINOMEscan; 1 µM; relative to: DMSO control): 68%
CNS(=O)(=O)Nc1nccc(Cc2c(C)c3ccc(Oc4ncccc4F)cc3oc2=O)c1F  IC50 (HH; cell viability; 7 days): > 1 µM
C[n+]1ccc(/C=N/NC(=O)C(=O)N/N=C/c2cc[n+](C)cc2)cc1  ΔTm (myc22 MYC G4-DNA parallel; FRET melting; 1 µM, K1 buffer, DNA 0.2 µM, with: ds26 10 µM): 4.5 ± 0.5 °C
CC1(C)CC(=O)C(C2C3=C(CC(C)(C)CC3=O)Oc3ccc4ccccc4c32)=C(O)C1 (stereo not shown)  IC50 (3T3-L1 pre-adipocytes; cell viability, MTT; 72 h): 100 to 1000 µg/mL
O=C(NCc1cc(F)cc(F)c1)[C@@]1(O)CCN(c2ccc3[nH]ccc3c2)C1=O  IC50 (Ovarian PDX-derived tumour cells; colony formation, soft agar clonogenic; 8-10 days): 0.036 µM
O=C(O)C(CO)NCc1cc(Cl)c(OCc2cccc(-c3ccccc3)c2Br)cc1OCc1cccnc1 (stereo not shown)  IC50 (MC-38; cell growth or viability, MTT): > 10 µM
CCOc1cncc(-c2ccc(NC(=O)C3(c4ccnc(NS(=O)(=O)C5CC5)n4)CCOCC3)nc2)n1  IC50 (WSUDLCL2; cell growth or viability, ATP luminescence; 72 h): 1.56 µM
C=CC(=O)N1CCC[C@@H](c2ccc(C(N)=O)c3[nH]ccc23)C1  IC50 (TMD8; cell growth or viability, ATP luminescence; 96 h): 0.434 µM
COc1cc(-n2cc3cc(F)cc(C(N)=O)c3n2)cc(Cl)c1C1CC(O)(CCO)CC2CCCC21 (stereo not shown)  IC50 (SNU1; cell growth or viability, MTT; 72 h): 0.23 µM
N#Cc1c(N)nc2c(c1-c1cccs1)Cc1cc(O)ccc1-2  IC50 (HH; cell growth or viability, ATP luminescence): 62.9 µM
Cc1cc2c3c(c1)C(C)(c1ccccc1)CC(C)(C)N3C(=O)C2=O (stereo not shown)  IC50 (HEK293-A GFP-LC3B; LC3B puncta formation; 22 h, with: chloroquine, torin1): > 20 µM
O=C(N/N=C/c1cc[n+](Cc2ccccc2)c2ccccc12)N/N=C/c1cc[n+](Cc2ccccc2)c2ccccc12  ΔTm (myc22 MYC G4-DNA parallel; FRET melting; 1 µM, K1 buffer, DNA 0.2 µM, with: ds26 10 µM): 5.6 ± 0.1 °C
CCOC(=O)c1nc2c3nsnc3ccc2n(CC)c1=O  IC50 (HEK293-A GFP-LC3B; LC3B puncta formation; 22 h, with: chloroquine, torin1): > 20 µM
CCN(C(=O)c1cc(F)ccc1Oc1nncnc1N1CCC2(C1)CN([C@H](CCCN(C)CCOC)C(C)C)C2)C(C)C  IC50 (MV4-11 (KMT2A-AF4, FLT3-ITD); mRNA level, QuantiGene multiplex, measured: PBX3): 0.028 ± 0.003 µM
CC1(C)CC(=O)C2=C(C1)Oc1ccc3ccccc3c1C2c1c[nH]c2ccccc12 (stereo not shown)  IC50 (3T3-L1 pre-adipocytes; cell viability, MTT; 72 h): > 100 µg/mL
Cc1ccc([N+](=O)[O-])cc1S(=O)(=O)N(C)/N=C/c1cnc2ccc(Br)cn12  IC50 (Malme-3M; cytotoxicity, MTS): 0.116 µM
CCCN1C(=O)/C(=C/C(=O)OCC)S/C1=N\N=C\c1cccc2cc3ccccc3nc12  IC50 (PATU; cell proliferation, MTT; 48 h): > 50 µM
CCn1nc(Cl)c2c1-c1cnc(N)c(c1)O[C@H](C)c1cc(F)ccc1-c1nn(C)cc1C2  IC50 (Ba/F3 EML4-ALK v1; cell viability): 0.00668 µM
COc1ccc(CSC2C3=C(CCCC3=O)Oc3ccc(Br)cc32)cc1 (stereo not shown)  IC50 (3T3-L1 pre-adipocytes; cell viability, MTT; 72 h): > 100 µg/mL
C=CC(=O)Nc1cccc(Cn2ncc3cnc(Nc4cnn(CCOC)c4)nc32)c1  percent of control (TAOK1 human; binding, KINOMEscan; 100 nM; lower = stronger binding): 27%
CCOC(=O)/C=C1\S/C(=N\N=C\c2cccc3cc4ccccc4nc23)N(c2ccc(F)cc2)C1=O  IC50 (PATU; cell proliferation, MTT; 48 h): > 50 µM
CC(C)CN(CC(=O)N1CCN(CC(OCc2ccc3ccccc3c2)c2ccc(Cl)cc2Cl)CC1)CC(C)C (stereo not shown)  IC50 (MDA-MB-468; cell growth or viability, MTT; 24 h): 4.68 µM
N#Cc1c(N)nc2c(c1-c1ccc(CO)o1)Cc1cccc(O)c1-2  IC50 (HH; cell viability, CellTiter-Glo; no inhibition at 100 µM): > 100 µM
Cn1ncc(-c2ccc3c(=O)[nH]nc(CN)c3c2)c1-c1c(F)c(Cl)cc(OC2CC2)c1C#N  IC50 (Granta-519; cell viability, inhibitor, CellTiter-Glo; 120 h, baseline-subtracted): 0.02 µM

For quick reference, copied from above:
Cn1ncc(-c2ccc3c(=O)[nH]nc(CN)c3c2)c1-c1c(F)c(Cl)cc(OC2CC2)c1C#N  IC50 (Granta-519; cell viability, inhibitor, CellTiter-Glo; 120 h, baseline-subtracted): 0.02 µM
COc1cc(-n2cc3cc(F)cc(C(N)=O)c3n2)cc(Cl)c1C1CC(O)(CCO)CC2CCCC21 (stereo not shown)  IC50 (SNU1; cell growth or viability, MTT; 72 h): 0.23 µM
